Measured values gathered from unrelated publications.
Every numbered part comes from another study and shows a few of its results, in no order. Positions count from the first letter of the parent shown.

Series 1
Target: TAR DNA-binding protein 43, full length, His tag (TARDBP, Homo sapiens, UniProt Q13148, residues 1-414)
Technique: RNA Bind-n-Seq
Molecule type: RNA
Matrix: in vitro
Concentration: 20 nM
Setting: 6-mer, flanks averaged, single round
Added: 150 mM LiCl
Relative to: input library
Reading: higher = stronger binding
Oligonucleotide	6-mer enrichment (R)
GUUUAA	1.05
GCAUAC	0.844
CUGCUA	0.882
AGCGCG	1.05
AAGAGA	0.945
UGCGGA	1.03
UUUAUU	1.34
UACUGC	0.87
UCGAGC	0.842

Series 2
Target: CCNE1, cyclin fold, Cln2 fusion (human)
Technique: yeast growth competition, sequencing
Matrix: yeast
Setting: strong parent motif
Relative to: not given
Reading: higher = stronger binding
Parent: BRCA2 docking peptide (human); PSIKRNLLNEFDR; partner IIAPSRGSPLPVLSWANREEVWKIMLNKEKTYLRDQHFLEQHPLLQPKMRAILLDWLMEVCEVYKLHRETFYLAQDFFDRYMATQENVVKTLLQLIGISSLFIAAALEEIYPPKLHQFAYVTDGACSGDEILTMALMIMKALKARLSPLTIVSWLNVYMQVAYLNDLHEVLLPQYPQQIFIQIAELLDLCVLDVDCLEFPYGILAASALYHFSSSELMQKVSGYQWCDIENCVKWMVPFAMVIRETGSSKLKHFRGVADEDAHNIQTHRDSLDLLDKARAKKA
Variant	normalised enrichment score
E10T	0.021
E10A	0.49
D12H	0.515
R13C	1.4
R13G	1.92
L7M	0.0306
S2W	0.967
I3S	1.27
L8N	0.358
K4A	0.179
S2H	1.85
P1L	1.88
F11E	-0.0786
L8V	1.09
F11D	0.144
D12K	0.616
K4T	0.192

Series 3
Target: RING finger protein unkempt homolog, zinc fingers 1-6, GST-SBP tag (UNK, Homo sapiens, UniProt Q9C0B0, residues 30-357)
Technique: RNA Bind-n-Seq
Molecule type: RNA
Matrix: in vitro
Concentration: not given
Setting: RNA with constant flanks, human-mouse chimeric sites, ends assumed
Relative to: input RNA pool
Reading: higher = stronger binding
Construct (chain): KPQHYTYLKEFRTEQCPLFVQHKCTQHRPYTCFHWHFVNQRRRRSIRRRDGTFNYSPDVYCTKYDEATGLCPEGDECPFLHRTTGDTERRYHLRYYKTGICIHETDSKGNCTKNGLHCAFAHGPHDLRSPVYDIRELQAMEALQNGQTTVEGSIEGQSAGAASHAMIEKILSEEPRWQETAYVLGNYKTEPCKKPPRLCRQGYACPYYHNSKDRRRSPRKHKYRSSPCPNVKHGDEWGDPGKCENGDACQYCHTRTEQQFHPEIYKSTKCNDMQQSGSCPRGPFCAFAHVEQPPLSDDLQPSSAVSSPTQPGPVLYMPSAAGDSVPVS
Oligonucleotide	bound/input enrichment [ratio]
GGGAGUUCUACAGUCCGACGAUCCUUUUUAAGAAGAUAUGUGAUGGGAUCUUUUAUACCCCUCAGUACUUAAAUCCUUCUGUAAUCAGCCUUUUGAAACAUAUGCUGCAGGUGGAUCCCAUGAAGAGGGCCGCAAUAAAAGAUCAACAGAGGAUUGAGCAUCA	0.326
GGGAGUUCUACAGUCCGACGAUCCGCUGGCCCAAGCUGAUGUAAAUGUUUGGCCUCCAUCUCUCAGGCACGUGUGCCUUCUCUUAGUCCCUGUUUUCGGGAUGUUAUGAAUCUCAGUACUGUUUGACAGAAGCACCAGCUUUGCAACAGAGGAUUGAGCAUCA	0.166
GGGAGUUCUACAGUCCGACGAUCGGGGAGAAACCUUACGAGUGUGUGCAGUGUGGGAAAUCGUAUAGUCAGAGCUCAAACCUCUUCAGACAUCAGAGACGACACAAUGCAGAAAAACUUUUGAAUGUUGUGAAGGUUUAAGAACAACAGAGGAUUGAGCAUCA	0.742
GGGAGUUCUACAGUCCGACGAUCCUGUGUGUGCUGAAUAAUGAUUUGUGAAAGAAGUUUUUCCAAGCUGUAACCCAUGCUGUUAUUAUAGUUGCUGCAAAAUGUUCUUCCUGAUAUUGAUUUUAUUUGUUCUGACUCUCCCUCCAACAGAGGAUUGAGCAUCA	0.516
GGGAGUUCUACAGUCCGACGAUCCCCCAAUUACCAUCUGUGGUCUGGAACUGCACUCUCUUUUUUAAAAAACAUGUAUACAUUUUAGGGCUGUAGAUUUAUUUUCCUGGUUUUGUUUUUCUUGCUUAUUCUUUGAGCACAGAACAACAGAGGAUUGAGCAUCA	4.04
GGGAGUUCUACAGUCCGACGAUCAGAUAUUAAGUAUUUUGAAAAAACUCGAACAGAUUUGUCAAGGGUAACCAGCUUGGAGUCUAGCAACUUGCCAAUGUGUUUACCAAUCUGGGGGCUUGUUUUUCUUUUCUUCUUUCAAAUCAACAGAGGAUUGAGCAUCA	0.276
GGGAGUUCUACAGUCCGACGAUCUCCUGGUGCGACAGCGUUGCAGGACGAUGUGAACAAAAACUCAAAGCGGACCCUCUAUUGUAGUUCUUGAUUCUCGAAAUGUGCUAUUAUUGUUUGUCUUUUUUUUUUUUUUUUUAAAGACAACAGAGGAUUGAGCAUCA	1.19
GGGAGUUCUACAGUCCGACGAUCGUGCCCUUCUCGCUGCUGCGGAGCCCGCCCAGCUGGGCAUUCCGGGACGACUGGUACGCACACAGCCGCCUCUUCGAUCAAGCUUUCGGGGUGCCCCGGUUGCCCGAUGAGUGGUCGCAGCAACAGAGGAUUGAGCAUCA	0.0938
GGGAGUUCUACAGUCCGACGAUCAUUGUUGAAGCUAACCCACUUUUAGAAGCAUUUGGAAAUGCGAAGACUGUUCGCAACAAUAAUAGCAGUCGAUUUGGAAAAUUUGUAGAAAUUCAUUUCAAUGAAAAGAGUUCGGUUGUUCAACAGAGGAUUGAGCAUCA	1.8
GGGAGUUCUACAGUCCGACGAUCAGUUCCAGAACCAGAAUAGAAAUGAAGAUGAGAUUACCCAGACGAGCCAAAACAGCUGCGCUACAGAAAAGUAAACUUAACCUUGCAGAGUUCCUUAAUGAAGAUACAAGUUAAGAGAGCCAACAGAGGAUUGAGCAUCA	0.245
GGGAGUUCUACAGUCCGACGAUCAAAGAGAAACUAAAGCAACUAAUAGAGAAGAGGAUUGGCAAAGAGAAAUUUCAUAGAGAAACUAGGAUUAUUAGCAAACAUGAGUUAUAUUCCAGAGCGUCUCAGAAACCCCAGCCAAACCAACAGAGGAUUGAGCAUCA	3.01

Other studies, line by line
Molecule	target	test	test system	setting	how to read	measurement	value
PhoQ, residues 284 288 289 292 302 303 NSMLDC	PhoP, residues 12 14 15 18 19 LYHSL (Escherichia coli, UniProt P23836)	Sort-seq, measured: YFP reporter	E. coli	PhoQ-PhoP variant library, added: 10 µM Mg2+	relative to: high Mg2+ state, higher = stronger signaling	fold induction	0.813

For quick reference, copied from above (series 1):
Oligonucleotide	6-mer enrichment (R)
CUGCUA	0.882
AGCGCG	1.05
AAGAGA	0.945
UGCGGA	1.03
UUUAUU	1.34
